Experimental data gathered from unrelated publications.
Compare with care: the assays were run in different laboratories. Numbers after ± are the reported error. ≈ marks a conversion by molar mass, not a printed value.

SMILES	assay	system	conditions	scale	endpoint	value
C[C@]12C[C@H](c3ccc(S(C)(=O)=O)cc3)C3=C4CCC(=O)C=C4CC[C@H]3[C@@H]1CC[C@@]2(O)C(F)(F)C(F)(F)F		rat liver microsomes	100 % absorption assumed		maximal oral bioavailability	87%
CCCC[C@@H]1NC(=O)[C@@H](NC(=O)[C@H](CCC(=O)O)NC(=O)CNC(=O)CN2CCN(CC(=O)O)CCN(CC(=O)O)CCN(CC(=O)O)CC2)CCCCNC(=O)C[C@@H](C(N)=O)NC(=O)[C@H](C(C)C)NC(=O)[C@@H]2CCCN2C(=O)[C@H](CCCNC(=N)N)NC(=O)CNC(=O)[C@H](Cc2c[nH]c3ccccc23)NC(=O)[C@H](CCCNC(=N)N)NC(=O)[C@@H](Cc2ccccc2)NC(=O)[C@H](Cc2c[nH]cn2)NC(=O)[C@H](CCC(=O)O)NC1=O [gallium-67 labelled]		C57 mice, B16/F1 flank melanoma	intravenous, 0.037 MBq, 4 h		urine excretion	86.6 ± 1.73%
O=C(COc1ccc(CO)cc1)N(Cc1cccs1)c1cc[nH]n1	LC-MS EIC	human liver microsomes, pooled, both sexes	10 µM, 60 min	reference: reference compound at start	relative peak area	6.31%
O=C(O)C1CN(Cc2ccc(-c3noc(-c4ccc(OCC[18F])c(C(F)(F)F)c4)n3)cc2)C1		rat, heart	intravenous, 1 h		tracer uptake	0.379 %ID/g
CC(C)[C@H](NC(=O)[C@@H]1CCCN1C(=O)[C@H](CCCNC(=N)N)NC(=O)[C@H](CS)NC(=O)[C@H](Cc1c[nH]c2ccccc12)NC(=O)[C@H](CCCNC(=N)N)NC(=O)[C@@H](Cc1ccccc1)NC(=O)[C@H](Cc1c[nH]cn1)NC(=O)[C@H](CCC(=O)O)NC(=O)[C@H](CS)NC(=O)[C@H](CS)NC(=O)CNC(=O)[C@@H]1CC(=O)N[C@@H](CCCNC(=N)N)C(=O)NCC(=O)N[C@@H](CC(=O)O)C(=O)N[C@H](Cc2ccc(O)cc2)C(=O)N1)C(N)=O [technetium-99m labelled]		C57 mice B16/F1 melanoma female, urine	iv, 0.037 MBq, 2 h		excretion	73 ± 9.29%
CC(C)=CCC[C@](C)(O)[C@H]1CC[C@]2(C)[C@@H]1[C@H](O)C[C@@H]1[C@@]3(C)CC[C@H](O)C(C)(C)[C@@H]3CC[C@]12C		Lauroglycol CC	72 h, 25 °C		solubility	6870 ± 380 µg/mL (≈ 14.9 mM)
C[C@]12C[C@H](c3ccc(C(=O)O)cc3)C3=C4CCC(=O)C=C4CC[C@H]3[C@@H]1CC[C@@]2(O)C(F)(F)C(F)(F)F		human liver microsomes	100 % absorption assumed		maximal oral bioavailability	98%
CCCCC/C=C/C=C/C(=O)NCC(C)C		rat plasma	4000 ng/mL, three freeze-thaw cycles high QC	reference: nominal concentration	relative error	8.08%
C[C@H]1NSc2nc(=O)c3[nH]ccc3n2Cc2ccc(Cl)cc21		rat, male, plasma	125 mg/kg	reference: rat over human 10 mg	exposure ratio	not detected
CC1=CC(C)(C)N=C2C=CC(=O)C=C12	LC-MS/MS	laying hens, skin and fat	oral in feed, 50 mg/kg feed ethoxyquin, 56 days		tissue residue	25.6 ± 9.4 ng/g
N#Cc1cnc2cc(OCC3CCNCC3)c(F)cc2c1Nc1cc(F)c(OCc2cccc(Cl)n2)cc1Cl		male Sprague-Dawley rat, plasma	oral, 100 mg/kg		bioavailability	12%
[11CH3]c1ccc2nc(C3CCC3)n(-c3ccc4[nH]ncc4c3)c2n1	extrapolated from mouse biodistribution	human female, osteogenic cells			absorbed dose	3.6 µSv/MBq
CCCC[C@H](NC(=O)[C@H](CCC(=O)O)NC(=O)CNC(=O)CN1CCN(CC(=O)O)CCN(CC(=O)O)CCN(CC(=O)O)CC1)C(=O)N[C@H]1CC(=O)NCCCC[C@@H](C(N)=O)NC(=O)[C@H](Cc2c[nH]c3ccccc23)NC(=O)[C@H](CCCNC(=N)N)NC(=O)[C@@H](Cc2ccccc2)NC(=O)[C@H](Cc2c[nH]cn2)NC1=O [indium-111 labelled]		C57 mouse, female, B16/F1 melanoma, urine	intravenous, 0.037 MBq, 0.5 h		urinary excretion	83.56 ± 0.49%
COc1ccc([C@@H]2CC(=O)c3c(O)cc(O[C@@H]4O[C@H](CO[C@@H]5O[C@@H](C)[C@H](O)[C@@H](O)[C@H]5O)[C@@H](O)[C@H](O)[C@H]4O)cc3O2)cc1O		rat plasma	0.48 ng/mL, 12 h, room temperature, autosampler stability	reference: nominal concentration	relative error	-3.14%
COCC1CN(C2CCN(c3cc(OC)c(Nc4ncc(Br)c(Nc5ccc6c(c5P(C)(C)=O)OCCO6)n4)cc3C)CC2)C1		human patients	oral, 10 to 240 mg once daily		treatment-related LDH increased, all grades	11.1%
NC[C@@H](C(=O)Nc1ccc(-c2cn[nH]c2)cc1)c1ccccc1	OECD 405 eye irritation	New Zealand White rabbit, eye	topical, 0.1%, 32 h (day 2), scale 0 to 4	direction not given	cornea score	0
C[C@@H]1CC[C@@H]([C@@](O)(CNCc2ccc(F)cc2)COCc2ccc(F)cc2)[C@H](OCc2ccc(F)cc2)C1	PAMPA-GI	phosphatidylcholine-cholesterol membrane	500 µM, 4 h, pH 6.5, 37 °C, 5% DMSO		permeability	22.7 ± 0.8 ×10⁻⁶ cm/s
O=C([O-])CN1CCN(CC(=O)[O-])CCN(CC(=O)NCCc2ccc3c(c2)C2C=CCC2C(c2cc4c(cc2Br)OCO4)N3)CCN(CC(=O)[O-])CC1.[111In+3] (centres unmarked)		mouse, Hec50 tumour-bearing, urinary bladder	2 h, with: blocking with 5 µg G-1		tissue uptake	0.5 ± 0.16 %ID/g
OCc1cn(Cc2ccc(-c3noc(-c4ccc(OCC[18F])c(C(F)(F)F)c4)n3)cc2)nn1		rat, heart	intravenous, 2 h		tracer uptake	0.94 %ID/g
CN1CCC[C@]1(C)/C=C/S(=O)(=O)NC(=O)Nc1c2c(cc3c1CCC3)CCC2		human, plasma	oral, 50 mg single dose		CL/F	1.2 L/h
C[C@H](NC(=O)COC(=O)[C@H](C)NC(=O)CO)C(=O)O		water	pH 6, 50 °C		depolymerization half-life	0.76 h

SMILES	assay	system	conditions	scale	endpoint	value
COC(=O)c1ccc(-c2cn(Cc3cc(Cl)ccc3O[11CH3])nn2)cc1	PET, 1TCM	rhesus macaque, hypothalamus	dose not given		distribution volume VT	0.588 mL/cm³
COc1ccc2cc(-c3ccc(-c4ccc(C)cn4)nc3)oc2c1		aqueous HEPES buffer	pH 7.4, zinc(II)-saturated form, with: quinine bisulfate reference		fluorescence quantum yield	0.15
Nc1nc(-n2nnc3c2CCC2C(CO)C2CC3)nc2c1ncn2C1OC(CO)C(O)C1O (mixture of isomers)	frequency-domain fluorometry	methanol			average fluorescence lifetime	0.8 ns
CC[C@H](C)[C@H](NC(=O)[C@@H]1CCCN1C(=O)CNC(=O)[C@H](Cc1ccccc1)NC(=O)[C@H](CC(N)=O)NC(=O)[C@H](CC(N)=O)NC(=O)[C@H](CO)NC(=O)[C@H](CO)NC(=O)[C@H](Cc1c[nH]cn1)NC(=O)[C@@H](NC(=O)[C@H](CC(C)C)NC(=O)[C@H](Cc1ccccc1)NC(=O)[C@H](CC(N)=O)NC(=O)[C@H](C)NC(=O)[C@H](CC(C)C)NC(=O)[C@H](CCCNC(=N)N)NC(=O)[C@H](CCC(N)=O)NC(=O)[C@@H](NC(=O)[C@H](C)NC(=O)[C@@H]1CSSC[C@H](NC(=O)[C@@H](N)CCCCN)C(=O)N[C@@H](CC(N)=O)C(=O)N[C@@H]([C@@H](C)O)C(=O)N[C@@H](C)C(=O)N[C@@H]([C@@H](C)O)C(=O)N1)[C@@H](C)O)C(C)C)C(=O)N[C@@H](CC(C)C)C(=O)N[C@@H](CO)C(=O)N[C@@H](CO)C(=O)N[C@H](C(=O)N[C@@H](CC(N)=O)C(=O)N[C@H](C(=O)NCC(=O)N[C@@H](CO)C(=O)N[C@@H](CC(N)=O)C(=O)N[C@H](C(=O)N[C@@H](Cc1ccc(O)cc1)C(N)=O)[C@@H](C)O)C(C)C)[C@@H](C)O	ion mobility mass spectrometry	nitrogen drift gas	monomer charge +4, compact conformer		collision cross section	552 ± 13.4 Å²
CC(=O)Nc1ncc(CN2CC[C@H](Oc3cccc([18F])n3)C[C@@H]2C)s1		human, plasma	dose not given, 3 min		unchanged parent	> 95%
O=C(CCCCC[N+]#[C][99Tc-5]([C]#[N+]CCCCCC(=O)N[C@H]1C(O)O[C@H](CO)[C@@H](O)[C@@H]1O)([C]#[N+]CCCCCC(=O)N[C@H]1C(O)O[C@H](CO)[C@@H](O)[C@@H]1O)([C]#[N+]CCCCCC(=O)N[C@H]1C(O)O[C@H](CO)[C@@H](O)[C@@H]1O)([C]#[N+]CCCCCC(=O)N[C@H]1C(O)O[C@H](CO)[C@@H](O)[C@@H]1O)[C]#[N+]CCCCCC(=O)N[C@H]1C(O)O[C@H](CO)[C@@H](O)[C@@H]1O)N[C@H]1C(O)O[C@H](CO)[C@@H](O)[C@@H]1O (some centres unmarked)	dynamic SPECT	nude mouse U87 MG xenograft	5-10 min	reference: tumour over muscle	tumour/muscle ratio	1.79
CC(C)(O)c1ncc([S@](N)(=O)=NC(=O)Nc2c3c(cc4c2CCC4)CCC3)s1		human, plasma	oral, 600 mg, single dose, fasted, healthy volunteers		half-life	11.4 h
COc1cc2c(cc1OC)CN(CCCCn1ccc3cc(OCC[18F])ccc31)C2		male ICR mice	intravenous, 30 min post-injection		spleen uptake	8.69 ± 0.95 %ID/g
N=C(N)NCCC[C@@H]1NC(=O)[C@H](Cc2c[nH]c3ccccc23)NC(=O)[C@@H](CC2CCCCC2)NC(=O)[C@@H]2CCCN2C(=O)[C@@H](NC(=O)CCc2ccccc2)CCCNC1=O		C57BL/6J mice, spinal cord	intraperitoneal, 1 mg/kg, two-compartment model		apparent central volume (V1/F)	0.06 µg/(ng/g)
CCCC[C@H](NC(=O)CNC(=O)CNC(=O)CN1CCN(CC(=O)O)CCN(CC(=O)O)CCN(CC(=O)O)CC1)C(=O)N[C@H]1CC(=O)NCCCC[C@@H](C(N)=O)NC(=O)[C@H](Cc2c[nH]c3ccccc23)NC(=O)[C@H](CCCNC(=N)N)NC(=O)[C@@H](Cc2ccccc2)NC(=O)[C@H](Cc2c[nH]cn2)NC1=O [copper-64 labelled]		C57 mouse female B16/F1 melanoma, urine	intravenous, 0.037 MBq, 4 h		urinary excretion	62.2 ± 4.43%
C1=CCCC=CCC1.F[P-](F)(F)(F)(F)F.[Pt+][c]1ccccc1P(=Nc1ccccc1)(c1ccccc1)c1ccccc1	NMR	DMSO-d6	1 week		free COD released	~6%
O=c1nc(NO)ccn1[C@@H]1O[C@H](CO)[C@@H](O)[C@H]1O	RT-PCR, refers to: CYP3A9	normal rat, liver	oral, 80 mg/kg twice daily, 5 days	reference: untreated rats	mRNA level	< 0.1 fold
O=C(CCc1ccc(CNC(C(=O)OC2CCCC2)C2CCCCC2)cn1)NO (centres unmarked)		human, plasma	oral, 40 mg, multiple doses, once daily, patients		Vd/F	93.5 L
CC/C=C\C/C=C\C/C=C\C/C=C\C/C=C\CCCCOC(CC)C(=O)O (centres unmarked)	radioactivity, 14C-labelled	Wistar rat, male, liver	oral, 100 mg/kg, 1 h		tissue concentration	77.7 µg equivalents/g tissue
C[C@H]1Nc2nc(=O)c3[nH]ccc3n2Cc2ccc(Cl)cc21		rat, male, plasma	125 mg/kg	reference: rat over human 5 mg	exposure ratio	not detected
CC12CC(c3ccc(S(C)(=O)=O)cc3)C3=C4CCC(=O)C=C4CCC3C1CCC2(O)C(F)(F)C(F)(F)F (centres unmarked)		human, plasma	intravenous, 15.7 µg, infusion		AUC	2.17 ng·h/mL
OC1(C(F)(F)F)CCN(c2nc(Nc3ccnc(C(F)(F)F)c3)nc(-c3cccc(C(F)(F)F)n3)n2)C1 (centres unmarked)		Sprague-Dawley rat, plasma	oral, 10 mg/kg		bioavailability	142%
CC(C)c1cnc(-c2cc(Cl)ccc2F)cc1Nc1ccncc1C(=O)NC(CO)CO	monotherapy, refers to: rash	human patients	oral, dose not given, grade 1, phase I A		patients with treatment-related adverse event	7.1%
Cc1ccc(OCC(=O)N(Cc2cccs2)c2ccn[nH]2)cc1		male Sprague-Dawley rat, plasma	oral, 30 mg/kg, single dose		AUC(0-t)	6.22 ng·h/mL
C#CC1(NC(=O)C(CC(C)(C)F)NC(c2ccc(-c3ccc(S(C)(=O)=O)cc3)cc2)C(F)(F)F)CC1 (centres unmarked)	LC-MS UV trace	aqueous buffer	concentration not given, 23 h, pH 7.5, 37 °C, with: cysteine 10 mM		cysteine adduct formation	0%

Repeated from above:
SMILES	assay	system	conditions	scale	endpoint	value
OCc1cn(Cc2ccc(-c3noc(-c4ccc(OCC[18F])c(C(F)(F)F)c4)n3)cc2)nn1		rat, heart	intravenous, 2 h		tracer uptake	0.94 %ID/g
CN1CCC[C@]1(C)/C=C/S(=O)(=O)NC(=O)Nc1c2c(cc3c1CCC3)CCC2		human, plasma	oral, 50 mg single dose		CL/F	1.2 L/h
C[C@H](NC(=O)COC(=O)[C@H](C)NC(=O)CO)C(=O)O		water	pH 6, 50 °C		depolymerization half-life	0.76 h
COC(=O)c1ccc(-c2cn(Cc3cc(Cl)ccc3O[11CH3])nn2)cc1	PET, 1TCM	rhesus macaque, hypothalamus	dose not given		distribution volume VT	0.588 mL/cm³
COc1ccc2cc(-c3ccc(-c4ccc(C)cn4)nc3)oc2c1		aqueous HEPES buffer	pH 7.4, zinc(II)-saturated form, with: quinine bisulfate reference		fluorescence quantum yield	0.15
